Measurements pooled from the literature.
Cell line: CCRF-CEM

| SMILES | test | conditions | measurement | value |
| --- | --- | --- | --- | --- |
| OC[C@H]1[C@@H](O)[C@@H](O)CN1Cc1ccc(I)cc1 | cell growth or viability, MTS | 72 h | IC50 | 102 µM |
| CC(C)C[C@H](NC(=O)[C@H](CCC(N)=O)NC(=O)CNC(=O)[C@H](Cc1c[nH]cn1)NC(=O)[C@H](CCC(N)=O)NC(=O)[C@H](CCCNC(=N)N)NC(=O)[C@H](CCCNC(=N)N)NC(=O)CNC(=O)CNC(=O)[C@H](CCCNC(=N)N)NC(=O)[C@H](CCCNC(=N)N)NC(=O)[C@H](CCCNC(=N)N)NC(=O)[C@H](CCC(N)=O)NC(=O)[C@H](CCCNC(=N)N)NC(=O)[C@H](CCCNC(=N)N)NC(=O)[C@H](CCCCN)NC(=O)[C@H](CCCCN)NC(=O)[C@H](CCCNC(=N)N)NC(=O)CN)C(=O)N[C@@H](Cc1c[nH]c2ccccc12)C(=O)N[C@@H](Cc1ccccc1)C(=O)N1CCC[C@H]1C(=O)N[C@@H](CCC(=O)O)C(=O)NCC(=O)N[C@@H](Cc1ccccc1)C(=O)O | trypan blue exclusion | 100 µM, 0.5 h | viability | < 30% |
| OC[C@H]1[C@@H](O)[C@@H](O)CN1Cc1ccccc1 | cell growth or viability, MTS | 72 h | IC50 | 101 µM |
| CC12CCC3(CCC(=O)NCCCNc4ccnc5cc(Cl)ccc45)C(C)(OOC3(C)O1)O2 | cell growth or viability, resazurin | 10 µM, 48 h | inhibition | 22.9% |
| CC(C)[C@H](NC(=O)[C@H](C(C)C)N(C)C)C(=O)N(C)[C@H](C(=O)N1CCC[C@H]1C(=O)N1CCC[C@H]1C(=O)O)C(C)C | cell growth or viability | 24 h | IC50 | 0.31 µM |
| CN(C)CC1C(=O)OC2C1CCC1(C)CC1CCC1(C)OC21 (centres unmarked) | cell growth or viability, resazurin |  | IC50 | 2.9 µM |
| CC/C=C\C/C=C\C/C=C\C/C=C\C/C=C\C/C=C\CCC(=O)Nc1ccn(C2OC(CO)C(O)C2(F)F)c(=O)n1 (centres unmarked) | NCI-60 screen |  | CC50 | > 100 µM |
| C#CCCCNCCNc1ccnc2cc(Cl)ccc12 | cell growth or viability, resazurin | 10 µM, 48 h | inhibition | 4.2% |
| C[C@H]1C(O)O[C@@H]2O[C@@]3(C)CC[C@H]4[C@H](C)CCC1[C@@]24OO3 (some centres unmarked) | cell growth or viability, XTT |  | IC50 | 0.87 µM |
| C/C1=C\CC[C@@]2(C)O[C@H]2[C@H]2OC(=O)C(C)[C@@H]2CC1 (some centres unmarked) | cell growth or viability, resazurin |  | IC50 | > 500 µM |
| CC1CCC2C(C)C(OC(=O)CCC(=O)N(CCCc3cn(-c4ccc(CN5CCOCC5)cc4)nn3)CCNc3ccnc4cc(Cl)ccc34)OC3OC4(C)CCC1C32OO4 (centres unmarked) | cell growth or viability, resazurin | 10 µM, 48 h | inhibition | 33.3% |

A few entries again:
| SMILES | test | conditions | measurement | value |
| --- | --- | --- | --- | --- |
| CC(C)[C@H](NC(=O)[C@H](C(C)C)N(C)C)C(=O)N(C)[C@H](C(=O)N1CCC[C@H]1C(=O)N1CCC[C@H]1C(=O)O)C(C)C | cell growth or viability | 24 h | IC50 | 0.31 µM |
| CN(C)CC1C(=O)OC2C1CCC1(C)CC1CCC1(C)OC21 (centres unmarked) | cell growth or viability, resazurin |  | IC50 | 2.9 µM |
